Measured values gathered from unrelated publications.
A part holds a random share of what one study measured. Values joined by “and” are separate records of one study, mostly repeats; a detail may differ.

Series 1
SMILES: Cc1ccc(O)c(C)c1-c1cnc2[nH]c(-c3cnc(N)nc3)cc2c1C#N
PKMYT1: Membrane-associated tyrosine- and threonine-specific cdc2-inhibitory kinase (PKMYT1, Homo sapiens, UniProt Q99640)
Chain of UniProt Q99640 (whole entry, looked up): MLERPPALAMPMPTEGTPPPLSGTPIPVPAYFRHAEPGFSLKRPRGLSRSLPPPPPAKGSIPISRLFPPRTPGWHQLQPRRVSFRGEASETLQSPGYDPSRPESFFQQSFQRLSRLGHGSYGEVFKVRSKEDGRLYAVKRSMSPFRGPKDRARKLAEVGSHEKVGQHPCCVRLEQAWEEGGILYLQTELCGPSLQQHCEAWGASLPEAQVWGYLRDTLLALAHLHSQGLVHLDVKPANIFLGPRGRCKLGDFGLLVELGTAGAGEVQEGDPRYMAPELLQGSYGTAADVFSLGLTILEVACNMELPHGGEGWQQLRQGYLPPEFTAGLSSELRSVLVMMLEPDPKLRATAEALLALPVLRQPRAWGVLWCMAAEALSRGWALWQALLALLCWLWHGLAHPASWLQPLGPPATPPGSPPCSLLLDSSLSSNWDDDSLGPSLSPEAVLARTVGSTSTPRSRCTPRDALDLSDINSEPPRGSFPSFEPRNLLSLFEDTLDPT
| target or system | assay | conditions | inhibition |
| --- | --- | --- | --- |
| KLE | cell proliferation | 10000 nM | 93.8% |
| HCC1806 | cell proliferation | 10000 nM | 99% |
| HCC1569 | automated capillary immunoblot, measured: CDK1 phospho-Thr14 | 0.02 nM | 14.3% |
| PKMYT1 | cell-free assay, TR-FRET | 37.04 nM | 98.3% |
| PKMYT1 |  | 5e-05 µM | -3.42% and 1.66% |
| MKN-1 | cell proliferation | 3333.33 nM | 98.4% |
| HCC1569 | automated capillary immunoblot, measured: CDK1 phospho-Thr14 | 333.33 nM | 64.1% |
| NCI-H1648 | cell proliferation | 258.4 nM | -18.8% |
| U-251 MG | cell growth | 0.5081 nM | 2.13% |
| MKN-1 | cell proliferation | 1111.11 nM | 87.9% |
| HCC1569 | cell proliferation | 41.15 nM | 4.56% |
| PKMYT1 | enzyme activity, inhibitor | 4.115 nM | 68.1% |
| PKMYT1 | cell-free assay, TR-FRET | 0.3333 µM | 101% |
| HuCCT-1 | cell proliferation | 30000 nM | 99.1% |
| HCC1569 | automated capillary immunoblot, measured: CDK1 phospho-Thr14 | 12.35 nM | 36.9% |
| KLE | cell proliferation | 370.37 nM | 27.6% |
| HCC1569 | cell proliferation | 3333.33 nM | 94.7% |
| PKMYT1 |  | 1 µM | 99.8% |
| MKN-1 | cell proliferation | 370.37 nM | 48.8% |

Series 2
SMILES: CCN1/C(=C/C=C2\CCCC(/C=C/C3=[N+](CC)c4ccccc4C3(C)C)=C2NCCCCCCCCN2CCC(Nc3nc4ccccc4n3Cc3ccc(F)cc3)CC2)C(C)(C)c2ccccc21
Cell line: U-87 MG
Tested at: concentration not given
Baseline: DMSO
| assay | log2 fold change |
| --- | --- |
| measured: PRR11 mRNA | -1.61 |
| measured: RTL8B mRNA | -1.3 |
| measured: POLA2 mRNA | -1.59 |
| measured: HSD3B7 mRNA | -1.68 |
| measured: P3H4 mRNA | -1.31 |
| measured: BUB1B-PAK6 mRNA | -4.92 |
| measured: B3GALT4 mRNA | -2.11 |
| measured: ZNF317 mRNA | 0.9 |
| measured: SLF1 mRNA | -1.04 |
| measured: GCLC mRNA | 2.31 |
| measured: ADCY9 mRNA | -1.07 |
| measured: VEPH1 mRNA | 1.86 |
| measured: TRPC4 mRNA | -1.72 |
| measured: AMOTL2 mRNA | -2.03 |
| measured: EVI2A mRNA | -1.48 |
| measured: NR0B1 mRNA | -1.13 |

Series 3
Organism: Arabidopsis thaliana
Strain: Col-0
Tested at: 6.25 µg/mL
Notes: seed germination, single repetition
| SMILES | hypocotyl length |
| --- | --- |
| CN1C(=O)C(O)(C(=O)O)Oc2cc(F)ccc21 (centres unmarked) | 2.2 cm and 2.19 cm and 2.1 cm and 2.03 cm and 2.08 cm |
| COc1ccc2c(c1)OC(O)(C(=O)O)C(=O)N2Cc1ccccc1 (centres unmarked) | 1.91 cm and 1.93 cm and 1.92 cm |
| O=C(O)C1Oc2cc(F)ccc2N(Cc2ccccc2)C1=O (centres unmarked) | 2.31 cm and 2.28 cm and 2.35 cm and 2.34 cm and 2.2 cm |
| O=C(O)C1(O)Oc2cc(F)ccc2N(Cc2ccccc2)C1=O (centres unmarked) | 1.64 cm and 1.66 cm and 1.62 cm and 1.61 cm and 1.67 cm |
| Cc1ccc2c(c1)OC(O)(C(=O)O)C(=O)N2Cc1ccccc1 (centres unmarked) | 2.03 cm and 2.02 cm and 2.05 cm and 2.04 cm |

Series 4
Compound: Cc1ncsc1-c1ccc(C(CO)NC(=O)C2CC(O)CN2C(=O)C(C(C)C)n2cc(-c3ccc(COc4c(-c5c(C)c(F)cc6[nH]ncc56)c(C5CC5)cc5c(N6CC7CC6CN7)nc(OC6CCOCC6)nc45)cc3)nn2)cc1 (centres unmarked)
| system | conditions | tumour volume |
| --- | --- | --- |
| PK-1 xenograft, mouse | 30 mg/kg twice weekly, day 4 | 160 mm3 and 122 mm3 and 198 mm3 and 120 mm3 and 170 mm3 |
| KP-4 xenograft, mouse | 30 mg/kg once weekly, day 11 | 315 mm3 and 303 mm3 and 326 mm3 and 396 mm3 and 426 mm3 |
| mouse, lung LXFA sample B PDX | 10 mg/kg twice weekly, day 7 | 159 mm3 and 39 mm3 and 65.8 mm3 and 87.3 mm3 and 187 mm3 and 226 mm3 and 79.3 mm3 and 317 mm3 |
| mouse, HT-29 xenograft | sc, 30 mg/kg once daily, day 6 | 356 mm3 and 419 mm3 and 357 mm3 and 437 mm3 |
